Published values pooled from the literature.
Lines come from different studies, so protocols differ. ± marks the error that the study gave.
PTH1R: Parathyroid hormone/parathyroid hormone-related peptide receptor (PTH1R, Homo sapiens, UniProt Q03431)
UniProt Q03431, sequence (whole entry, looked up): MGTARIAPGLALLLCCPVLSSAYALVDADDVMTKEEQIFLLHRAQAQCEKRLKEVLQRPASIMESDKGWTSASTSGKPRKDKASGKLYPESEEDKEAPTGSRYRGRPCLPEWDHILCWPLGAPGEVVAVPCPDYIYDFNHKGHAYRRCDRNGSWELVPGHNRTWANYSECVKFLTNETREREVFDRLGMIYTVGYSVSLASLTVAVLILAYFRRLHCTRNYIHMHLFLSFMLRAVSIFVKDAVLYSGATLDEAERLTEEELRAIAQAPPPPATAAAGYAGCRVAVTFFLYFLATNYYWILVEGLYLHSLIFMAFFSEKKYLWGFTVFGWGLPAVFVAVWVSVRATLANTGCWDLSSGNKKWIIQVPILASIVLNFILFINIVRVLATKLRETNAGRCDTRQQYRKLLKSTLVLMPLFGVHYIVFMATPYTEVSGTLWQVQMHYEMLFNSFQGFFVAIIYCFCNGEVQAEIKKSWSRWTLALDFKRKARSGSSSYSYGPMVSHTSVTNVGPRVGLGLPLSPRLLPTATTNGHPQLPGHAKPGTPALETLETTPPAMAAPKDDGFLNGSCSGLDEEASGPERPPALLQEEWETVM
MTNR1A: Melatonin receptor type 1A (MTNR1A, Homo sapiens, UniProt P48039)
UniProt P48039, sequence (whole entry, looked up): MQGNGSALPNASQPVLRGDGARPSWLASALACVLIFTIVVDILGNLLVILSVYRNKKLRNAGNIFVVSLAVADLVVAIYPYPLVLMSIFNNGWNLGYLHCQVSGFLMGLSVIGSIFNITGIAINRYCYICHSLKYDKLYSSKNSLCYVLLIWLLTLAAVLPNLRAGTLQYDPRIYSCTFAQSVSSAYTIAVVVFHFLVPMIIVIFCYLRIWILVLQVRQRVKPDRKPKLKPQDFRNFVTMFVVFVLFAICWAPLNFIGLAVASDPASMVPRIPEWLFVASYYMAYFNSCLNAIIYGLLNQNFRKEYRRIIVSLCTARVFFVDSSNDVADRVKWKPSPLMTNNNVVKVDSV
UniProt Q9NSD7, sequence (whole entry, unmodified, looked up): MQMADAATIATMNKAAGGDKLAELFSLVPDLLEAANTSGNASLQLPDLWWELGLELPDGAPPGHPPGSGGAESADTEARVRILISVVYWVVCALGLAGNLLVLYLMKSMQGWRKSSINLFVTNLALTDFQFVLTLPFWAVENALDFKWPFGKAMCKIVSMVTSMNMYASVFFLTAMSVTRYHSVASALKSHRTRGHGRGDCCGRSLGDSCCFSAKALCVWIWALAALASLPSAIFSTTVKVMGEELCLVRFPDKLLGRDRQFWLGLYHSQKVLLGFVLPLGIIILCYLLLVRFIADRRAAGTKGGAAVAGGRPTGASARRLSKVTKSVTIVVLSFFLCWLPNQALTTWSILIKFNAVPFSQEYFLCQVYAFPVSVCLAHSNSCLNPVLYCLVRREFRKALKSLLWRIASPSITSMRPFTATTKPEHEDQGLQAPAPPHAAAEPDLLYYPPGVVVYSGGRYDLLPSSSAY
UniProt Q8TDS7, sequence (whole entry, looked up): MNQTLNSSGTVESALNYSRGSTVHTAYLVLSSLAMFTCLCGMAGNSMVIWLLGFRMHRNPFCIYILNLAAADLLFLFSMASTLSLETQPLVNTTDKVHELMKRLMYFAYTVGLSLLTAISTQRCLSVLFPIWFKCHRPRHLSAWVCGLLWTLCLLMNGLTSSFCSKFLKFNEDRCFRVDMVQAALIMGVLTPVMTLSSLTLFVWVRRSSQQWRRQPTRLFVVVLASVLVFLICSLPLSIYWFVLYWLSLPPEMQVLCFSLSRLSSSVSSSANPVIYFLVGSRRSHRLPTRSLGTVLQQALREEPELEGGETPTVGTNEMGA
UniProt P25103, sequence (whole entry, looked up): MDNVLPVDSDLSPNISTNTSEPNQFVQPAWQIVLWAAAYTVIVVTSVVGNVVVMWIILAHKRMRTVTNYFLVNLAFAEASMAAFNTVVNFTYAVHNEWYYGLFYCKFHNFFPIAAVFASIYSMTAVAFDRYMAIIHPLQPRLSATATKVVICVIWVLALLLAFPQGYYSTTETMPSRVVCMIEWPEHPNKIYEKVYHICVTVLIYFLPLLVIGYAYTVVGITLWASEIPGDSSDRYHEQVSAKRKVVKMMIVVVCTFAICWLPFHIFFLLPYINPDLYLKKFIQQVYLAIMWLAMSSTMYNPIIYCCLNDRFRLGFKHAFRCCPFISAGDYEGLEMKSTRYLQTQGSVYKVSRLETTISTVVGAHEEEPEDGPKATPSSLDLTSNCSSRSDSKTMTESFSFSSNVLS
UniProt Q969F8, sequence (whole entry, unmodified, looked up): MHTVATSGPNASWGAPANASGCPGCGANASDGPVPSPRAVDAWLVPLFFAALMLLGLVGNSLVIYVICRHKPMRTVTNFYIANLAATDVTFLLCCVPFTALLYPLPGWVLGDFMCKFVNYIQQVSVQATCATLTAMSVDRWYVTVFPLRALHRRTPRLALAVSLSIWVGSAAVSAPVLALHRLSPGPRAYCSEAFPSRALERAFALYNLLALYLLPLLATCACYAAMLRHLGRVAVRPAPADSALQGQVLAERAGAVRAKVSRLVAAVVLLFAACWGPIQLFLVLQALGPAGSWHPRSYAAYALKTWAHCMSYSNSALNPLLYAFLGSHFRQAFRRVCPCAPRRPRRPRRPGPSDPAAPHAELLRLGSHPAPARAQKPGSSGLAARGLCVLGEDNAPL

SMILES | target | assay | test system | conditions | scale | Emax [%]
CC[C@H](C)[C@H](NC(=O)[C@H](CCC(=O)O)NC(=O)[C@H](C)NC(=O)[C@@H](NC(=O)[C@H](Cc1c[nH]cn1)NC(=O)[C@H]1CCC[C@@H]1NC(=O)[C@H](CCC(=O)O)NC(=O)[C@H](C)NC(=O)[C@@H](NC(=O)[C@H]1CCC[C@@H]1NC(=O)[C@H](Cc1c[nH]cn1)NC(=O)[C@H](Cc1c[nH]cn1)NC(=O)[C@H](CC(C)C)NC(=O)[C@H]1CCC[C@@H]1NC(=O)[C@H](Cc1ccccc1)NC(=O)[C@H](CCCNC(=N)N)NC(=O)[C@H](CCCNC(=N)N)NC(=O)[C@H](CCCNC(=N)N)NC(=O)[C@H](CC(C)C)NC(=O)[C@H](CC(=O)O)NC(=O)[C@H](CCC(N)=O)NC(=O)[C@@H](NC(=O)[C@H](CO)NC(=O)[C@H](CCCCN)NC(=O)CNC(=O)[C@H](CCCCN)NC(=O)[C@H](CC(=O)O)NC(=O)[C@H](Cc1c[nH]cn1)NC(=O)[C@H](CC(C)C)NC(=O)[C@H](CC(C)C)NC(=O)[C@H](CCC(N)=O)NC(=O)[C@H](Cc1c[nH]cn1)NC(=O)[C@H](CCC(=O)O)NC(=O)[C@H](CO)NC(=O)[C@@H](NC(=O)[C@H](C)N)C(C)C)[C@@H](C)CC)[C@@H](C)CC)[C@@H](C)O)C(N)=O | Parathyroid hormone/parathyroid hormone-related peptide receptor, with β-arrestin-2 (PTH1R, Homo sapiens, UniProt Q03431) | β-arrestin-2 recruitment, agonist, BRET | CHO-FlpIn cells |  |  | 30 to 40
CCCCCCCCCCCCCCCC(=O)N[C@@H](CCCNC(=N)N)C(=O)NCCCC[C@H](NC(=O)[C@H](CCC(N)=O)NC(=O)[C@H](Cc1c[nH]cn1)NC(=O)[C@H](CCCC)NC(=O)[C@H](CC(C)C)NC(=O)[C@H](CCC(N)=O)NC(=O)[C@@H](NC(=O)[C@H](CCC(=O)O)NC(=O)C(C)(C)NC(=O)[C@@H](NC(=O)C1(N)CCCC1)C(C)C)[C@@H](C)CC)C(N)=O | PTH1R | cAMP response, agonist, GloSensor cAMP | GP-2.3 | ligand-on phase |  | 112 ± 5.3
CNC(=N)NCCC[C@H](NC(=O)[C@H](CC(C)C)NC(=O)NNC(=O)[C@H](Cc1ccccc1)NC(=O)[C@@H](NC(=O)[C@H](CC(N)=O)NC(=O)[C@@H]1C[C@@H](O)CN1C(=O)[C@@H](Cc1ccc(O)cc1)NC(C)=O)[C@@H](C)O)C(=O)N[C@@H](Cc1c[nH]c2ccccc12)C(N)=O | KiSS-1 receptor (KISS1R, Homo sapiens, UniProt Q969F8, R154A) | IP1 accumulation, agonist, HTRF | HEK293 cells | 1 h, 37 °C, R154A mutant |  | 0.24
CCCCCCCCCCCCCCCC(=O)N[C@H](CCCNC(=N)N)C(=O)NCCCC[C@H](NC(=O)[C@H](CCCCNC(=N)N)NC(=O)[C@H](CCC(N)=O)NC(=O)[C@H](Cc1c[nH]cn1)NC(=O)[C@H](CCCC)NC(=O)[C@H](CC(C)C)NC(=O)[C@H](CCC(N)=O)NC(=O)[C@@H](NC(=O)[C@H](CCC(=O)O)NC(=O)C(C)(C)NC(=O)[C@@H](NC(=O)C1(N)CCCC1)C(C)C)[C@@H](C)CC)C(N)=O | PTH1R | cAMP response, agonist, GloSensor cAMP | GP-2.3 | washout phase |  | 139 ± 15
CCc1cc(O)cc2c(/C=N/NC(=N)NCCc3ccc(Cl)cc3)c[nH]c12 | RXFP3 (Homo sapiens, UniProt Q9NSD7, T162A) |  | HEK-293T |  | relative to: wild type | 79.3 ± 13.8
COc1ccc(C2(C(=O)N3CCC(Nc4nc5ccccc5c(=O)[nH]4)CC3)CC2)cc1 | MRGPRD (Homo sapiens, UniProt Q8TDS7) | miniGq recruitment, agonist, BRET | HEK293T | wild type | relative to: wild type | 101 ± 5.18
COc1cc2c(CCNC(C)=O)c[nH]c2cc1Cl | MTNR1A | GTPγS binding, agonist, radiometric |  | cell membranes |  | 74
CCCCCCCCCCCCCCCC(=O)N[C@H](CCC(=O)O)C(=O)NCCCC[C@H](NC(=O)[C@H](CCC(N)=O)NC(=O)[C@H](Cc1c[nH]cn1)NC(=O)[C@H](CCCC)NC(=O)[C@H](CC(C)C)NC(=O)[C@H](CCC(N)=O)NC(=O)[C@@H](NC(=O)[C@H](CCC(=O)O)NC(=O)C(C)(C)NC(=O)[C@@H](NC(=O)C1(N)CCCC1)C(C)C)[C@@H](C)CC)C(N)=O | PTH1R | cAMP response, agonist, GloSensor cAMP | GP-2.3 | washout phase |  | 133 ± 14
COc1ccc2[nH]c(I)c(CCNC(C)=O)c2c1 | MTNR1A | β-arrestin recruitment, agonist | CHO-K1 | 90 min |  | 98
CCCCCCCCCCCCCCCC(=O)N[C@H](CCC(=O)O)C(=O)NCCCC[C@H](NC(=O)[C@H](CCCCNC(=N)N)NC(=O)[C@H](CCC(N)=O)NC(=O)[C@H](Cc1c[nH]cn1)NC(=O)[C@H](CCCC)NC(=O)[C@H](CC(C)C)NC(=O)[C@H](CCC(N)=O)NC(=O)[C@@H](NC(=O)[C@H](CCC(=O)O)NC(=O)C(C)(C)NC(=O)[C@@H](NC(=O)C1(N)CCCC1)C(C)C)[C@@H](C)CC)C(N)=O | PTH1R | cAMP response, agonist, GloSensor cAMP | GP-2.3 | washout phase |  | 92 ± 7
COc1ccc2[nH]c(Br)c(CCNC(C)=O)c2c1 | MTNR1A | β-arrestin recruitment, agonist | CHO-K1 | 90 min |  | 101
CC[C@H](C)[C@@H]1NC(=O)[C@H](Cc2ccccc2)NC(=O)[C@H](CCC(=O)O)NC(=O)[C@H](CCCNC(=N)N)NC(=O)CNC(=O)[C@@H](NC(=O)[C@H](CC(C)C)NC(=O)[C@H](CCCNC(=N)N)NC(=O)[C@@H](NC(=O)CNC(=O)[C@H](Cc2ccc(O)cc2)NC(=O)[C@@H]2CCCN2C(=O)[C@H](C)NC(=O)[C@H](C)NC(=O)[C@@H](N)CCCNC(=N)N)C(C)C)CSSC[C@@H]2NC(=O)[C@@H](NC(=O)[C@H](CO)NC(=O)[C@H](CO)NC(=O)[C@H](CO)NC(=O)[C@H](CC(C)C)NC(=O)CNC(=O)[C@H](C)NC(=O)[C@H](CC(C)C)NC(=O)[C@@H](NC(=O)[C@@H](N)CC(=O)O)C(C)C)CSSC[C@H](NC(=O)CNC(=O)[C@H](Cc3c[nH]c4ccccc34)NC(=O)[C@H](CCCCN)NC2=O)C(=O)N[C@@H](CO)C(=O)N[C@@H](CCCCN)C(=O)N[C@@H](CO)C(=O)N[C@@H](CCC(=O)O)C(=O)N[C@@H]([C@@H](C)CC)C(=O)N[C@@H](CO)C(=O)N[C@@H](CO)C(=O)N[C@@H](CC(C)C)C(=O)N[C@H](C(=O)O)CSSC[C@@H](C(=O)NCC(=O)NCC(=O)N[C@@H](CO)C(=O)N[C@@H](CCCNC(=N)N)C(=O)N[C@@H](Cc2c[nH]c3ccccc23)C(=O)O)NC(=O)[C@H]([C@@H](C)O)NC(=O)[C@H](Cc2ccccc2)NC(=O)[C@H]([C@@H](C)CC)NC(=O)[C@H](C(C)C)NC(=O)[C@H](C)NC(=O)[C@H](CCCNC(=N)N)NC1=O | RXFP3 (Homo sapiens, UniProt Q9NSD7, K271A) |  | HEK-293T |  | relative to: wild type | 77.8 ± 17.7
COc1cc(I)c(Cc2cc(OC)c(OC)cc2CC(=O)OC(C)(C)C)cc1OC | MTNR1A | β-arrestin recruitment, agonist | CHO-K1 | 90 min |  | 41
CSCC[C@H](NC(=O)[C@H](CC(C)C)NC(=O)CNC(=O)[C@H](Cc1ccccc1)NC(=O)[C@H](Cc1ccccc1)NC(=O)[C@@H](N)CCC(N)=O)C(N)=O | Substance-P receptor, with miniGs/q (TACR1, Homo sapiens, UniProt P25103) | miniGs/q recruitment, BRET | HEK293 | 30 min | relative to: 10 µM substance P | 80 ± 3

A few entries again:
SMILES | target | assay | test system | conditions | scale | Emax [%]
CCCCCCCCCCCCCCCC(=O)N[C@H](CCC(=O)O)C(=O)NCCCC[C@H](NC(=O)[C@H](CCC(N)=O)NC(=O)[C@H](Cc1c[nH]cn1)NC(=O)[C@H](CCCC)NC(=O)[C@H](CC(C)C)NC(=O)[C@H](CCC(N)=O)NC(=O)[C@@H](NC(=O)[C@H](CCC(=O)O)NC(=O)C(C)(C)NC(=O)[C@@H](NC(=O)C1(N)CCCC1)C(C)C)[C@@H](C)CC)C(N)=O | PTH1R | cAMP response, agonist, GloSensor cAMP | GP-2.3 | washout phase |  | 133 ± 14
